Measured values collected from several papers.
Every numbered part comes from another study and shows a few of its results, in no order. Changes are numbered by the printed parent chain.

Sample 1 — technique: protein-binding microarray; form: double-stranded DNA, one strand shown; sample: in vitro; tested at: not given; reading: higher = stronger binding
Target: Transcription factor Sp1 (SP1, Homo sapiens, UniProt P08047, residues 1-785, full length assumed)
Sequence of UniProt P08047 (whole entry, looked up): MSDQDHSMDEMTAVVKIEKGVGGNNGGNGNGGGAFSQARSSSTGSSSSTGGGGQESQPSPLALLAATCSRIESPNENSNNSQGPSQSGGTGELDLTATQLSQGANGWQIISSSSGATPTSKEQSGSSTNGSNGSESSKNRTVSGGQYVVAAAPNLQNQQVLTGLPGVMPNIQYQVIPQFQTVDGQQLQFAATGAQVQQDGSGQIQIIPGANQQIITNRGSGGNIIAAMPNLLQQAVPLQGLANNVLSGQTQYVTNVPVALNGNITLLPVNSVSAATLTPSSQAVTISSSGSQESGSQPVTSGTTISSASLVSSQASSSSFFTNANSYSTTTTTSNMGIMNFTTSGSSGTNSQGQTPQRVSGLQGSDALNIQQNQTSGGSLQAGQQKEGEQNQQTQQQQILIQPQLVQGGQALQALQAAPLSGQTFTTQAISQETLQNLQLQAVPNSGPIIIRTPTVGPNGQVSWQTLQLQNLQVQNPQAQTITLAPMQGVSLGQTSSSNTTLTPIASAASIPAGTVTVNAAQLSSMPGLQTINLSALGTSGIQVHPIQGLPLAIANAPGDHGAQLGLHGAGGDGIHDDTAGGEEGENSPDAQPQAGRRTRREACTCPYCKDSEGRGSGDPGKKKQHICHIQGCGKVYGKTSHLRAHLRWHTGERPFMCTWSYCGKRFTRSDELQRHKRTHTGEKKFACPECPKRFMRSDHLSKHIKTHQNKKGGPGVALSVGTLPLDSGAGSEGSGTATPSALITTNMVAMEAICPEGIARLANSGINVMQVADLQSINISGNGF
Notes: k-mer, scored over probes, only values ≥0.25
Oligonucleotide | E-score
CCTCATTA | 0.266
TGTACACA | 0.279
GCACGCCC | 0.305
ACCATATA | 0.295
CATCCCCG | 0.256
CACCACCC | 0.344
AACCGCCC | 0.322
AACGCCCC | 0.457

Sample 2 — target: CCND3, cyclin fold, Cln2 fusion (human); technique: yeast growth competition, sequencing; sample: yeast; notes: weak parent motif; reference: not given; reading: higher = stronger binding
Starting sequence: WEE1 docking peptide (human); HKTFRKLRLFDTP
Change | normalised enrichment score
R5D | 0.034
T12D | 0.214
R5I | 0.122
F10D | 0.0688

Sample 3 — technique: RNA Bind-n-Seq; form: RNA; sample: in vitro; tested at: 365 nM; reference: no-protein control; reading: higher = stronger binding
Target: RNA binding protein fox-1 homolog 2, RRM domain, GST-SBP tag (RBFOX2, Homo sapiens, UniProt O43251-10, residues 100-194)
Notes: natural RNA segment, single round, ends assumed
Shared flanks, not repeated: GGGAGUUCUACAGUCCGACGAUC … UGGAAUUCUCGGGUGCCAA
Oligonucleotide | RBNS enrichment (R)
UGCAUCCUGCUGCCAAGGGUGGACACGGCUGCAGACUUCUGGGGGAAUUGUCGCCUCCUGCUCUUUUGUUACUGAGUGAGAUAAGGUUGUUCAAUAAAGACUUUUAUCCC | 0.662
GGGGACCUAGAAGCAGCCCAGUGUGUCCCCACCCCUUUUCCGCACUGUCUUGCUAAUGUUCUGAUCACUGUGCGCCCCCUCCCUCUUCAGAAGGACCCUGGGCCUCUUGA | 0.841
GAGUAAUGUUUGUGGCUAUUAAAAUGCAUUAUCAUUAUCCACUUCAAUAGCAUUUUCCUCUGCUUUGAAAUUUCCAGAAAUCAUCUUGGGCCAAGGCAAUGACACAUACA | 0.413
AGCUCUGUUACCCUGAGAACACCAGAGCUCCCCUUGUCUCCCUCUCUCUCUCAUCCAGGGUCCCUGCCUGACCCACCAGUUGCUCGUGAGCUGCACAGUUCAGAUGAGAC | 0.69
GUUCCAGUAACCAAGCCAGUCCCCAGGACACUAGUCUACGUUGGCAGGACUUCACAAGUUAAUCAUUCCUUAGGCCUCCCUUGGCCCUUUCAUCCUGGAUUCUUAGGUGG | 0.565
UAUAUUUUGGGUACUGGAGCUUUUAAAAAUGUUUGGUUUCAGGUAUUUUUAUUCAUGUGAAGUGUAUAUGAUUCUCUUGAGAUAAGGUUUUAAGCUAAAAUGUUACUCCC | 0.398
UAUGGAACAUAAAGUUGUAUUGCAUGCAAUUUGAAGUAACUUAUUUGACUAUGAAUGUUAUCGGAUUACUGAAUUGUAUCAAUUUGUUUGUGUUCAAUAUCAGCUUUGAU | 7.92
CUUACUUUCUUCUUAUGUAUACAUAAUUAAAUGAAAAGUCUUCAUAGGAGUUUGACAAAAUGAAUUGUGGUUAUAAAACGAAUUUGCUUUUUUGUUGUUUUGUUUUUCUU | 0.629

Further values, each from its own experiment
Substance | target | assay | system | conditions | scale | measurement | value
PhoQ, residues 284 288 289 292 302 303 NLCILV | PhoP, residues 12 14 15 18 19 SGWQI (Escherichia coli, UniProt P23836) | Sort-seq, item: YFP reporter | E. coli | PhoQ-PhoP variant library, added: 10 µM Mg2+ | reference: high Mg2+ state, higher = stronger signaling | fold induction | 23.4

Excerpt of the above (sample 3):
Oligonucleotide | RBNS enrichment (R)
UAUAUUUUGGGUACUGGAGCUUUUAAAAAUGUUUGGUUUCAGGUAUUUUUAUUCAUGUGAAGUGUAUAUGAUUCUCUUGAGAUAAGGUUUUAAGCUAAAAUGUUACUCCC | 0.398
UGCAUCCUGCUGCCAAGGGUGGACACGGCUGCAGACUUCUGGGGGAAUUGUCGCCUCCUGCUCUUUUGUUACUGAGUGAGAUAAGGUUGUUCAAUAAAGACUUUUAUCCC | 0.662
CUUACUUUCUUCUUAUGUAUACAUAAUUAAAUGAAAAGUCUUCAUAGGAGUUUGACAAAAUGAAUUGUGGUUAUAAAACGAAUUUGCUUUUUUGUUGUUUUGUUUUUCUU | 0.629
